# Results gathered from unrelated publications.
# Each line is one published result; not all experiments were run side by side.
# BDKRB1: B1 bradykinin receptor (BDKRB1, Homo sapiens, UniProt P46663)
# UniProt P46663, sequence (whole entry, looked up): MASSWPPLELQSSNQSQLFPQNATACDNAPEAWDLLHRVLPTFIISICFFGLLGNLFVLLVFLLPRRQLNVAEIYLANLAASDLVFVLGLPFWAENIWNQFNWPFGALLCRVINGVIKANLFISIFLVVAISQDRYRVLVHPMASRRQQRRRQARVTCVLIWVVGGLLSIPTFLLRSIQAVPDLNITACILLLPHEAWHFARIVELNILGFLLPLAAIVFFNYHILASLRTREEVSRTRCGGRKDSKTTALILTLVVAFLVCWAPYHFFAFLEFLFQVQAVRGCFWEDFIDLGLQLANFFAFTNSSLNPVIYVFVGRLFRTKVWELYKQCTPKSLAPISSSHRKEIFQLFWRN
# UniProt P30411, sequence (whole entry, looked up): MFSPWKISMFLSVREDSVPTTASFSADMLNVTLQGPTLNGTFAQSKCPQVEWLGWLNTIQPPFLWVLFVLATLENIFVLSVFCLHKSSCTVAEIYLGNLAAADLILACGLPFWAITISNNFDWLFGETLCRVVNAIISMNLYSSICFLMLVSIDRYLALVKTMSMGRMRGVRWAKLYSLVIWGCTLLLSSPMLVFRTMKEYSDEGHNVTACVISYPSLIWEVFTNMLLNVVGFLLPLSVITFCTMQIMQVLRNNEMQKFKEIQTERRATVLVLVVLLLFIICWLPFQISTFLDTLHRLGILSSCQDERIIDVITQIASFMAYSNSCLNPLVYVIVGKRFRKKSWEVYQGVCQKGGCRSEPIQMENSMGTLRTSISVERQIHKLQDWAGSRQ
# UniProt P31749, sequence (whole entry, looked up): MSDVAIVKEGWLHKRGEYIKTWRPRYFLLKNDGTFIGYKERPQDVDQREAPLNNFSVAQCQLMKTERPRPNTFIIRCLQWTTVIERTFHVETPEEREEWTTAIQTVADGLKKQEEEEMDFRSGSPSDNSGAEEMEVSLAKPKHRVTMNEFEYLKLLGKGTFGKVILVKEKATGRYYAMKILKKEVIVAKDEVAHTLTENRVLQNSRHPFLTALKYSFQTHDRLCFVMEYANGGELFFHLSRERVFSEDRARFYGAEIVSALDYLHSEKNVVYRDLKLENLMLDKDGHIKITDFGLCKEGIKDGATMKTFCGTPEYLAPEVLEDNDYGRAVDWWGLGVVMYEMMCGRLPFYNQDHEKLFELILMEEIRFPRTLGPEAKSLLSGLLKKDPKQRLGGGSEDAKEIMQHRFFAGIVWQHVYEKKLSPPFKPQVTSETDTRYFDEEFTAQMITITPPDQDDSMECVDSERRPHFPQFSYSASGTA
# UniProt Q13255, sequence (whole entry, looked up): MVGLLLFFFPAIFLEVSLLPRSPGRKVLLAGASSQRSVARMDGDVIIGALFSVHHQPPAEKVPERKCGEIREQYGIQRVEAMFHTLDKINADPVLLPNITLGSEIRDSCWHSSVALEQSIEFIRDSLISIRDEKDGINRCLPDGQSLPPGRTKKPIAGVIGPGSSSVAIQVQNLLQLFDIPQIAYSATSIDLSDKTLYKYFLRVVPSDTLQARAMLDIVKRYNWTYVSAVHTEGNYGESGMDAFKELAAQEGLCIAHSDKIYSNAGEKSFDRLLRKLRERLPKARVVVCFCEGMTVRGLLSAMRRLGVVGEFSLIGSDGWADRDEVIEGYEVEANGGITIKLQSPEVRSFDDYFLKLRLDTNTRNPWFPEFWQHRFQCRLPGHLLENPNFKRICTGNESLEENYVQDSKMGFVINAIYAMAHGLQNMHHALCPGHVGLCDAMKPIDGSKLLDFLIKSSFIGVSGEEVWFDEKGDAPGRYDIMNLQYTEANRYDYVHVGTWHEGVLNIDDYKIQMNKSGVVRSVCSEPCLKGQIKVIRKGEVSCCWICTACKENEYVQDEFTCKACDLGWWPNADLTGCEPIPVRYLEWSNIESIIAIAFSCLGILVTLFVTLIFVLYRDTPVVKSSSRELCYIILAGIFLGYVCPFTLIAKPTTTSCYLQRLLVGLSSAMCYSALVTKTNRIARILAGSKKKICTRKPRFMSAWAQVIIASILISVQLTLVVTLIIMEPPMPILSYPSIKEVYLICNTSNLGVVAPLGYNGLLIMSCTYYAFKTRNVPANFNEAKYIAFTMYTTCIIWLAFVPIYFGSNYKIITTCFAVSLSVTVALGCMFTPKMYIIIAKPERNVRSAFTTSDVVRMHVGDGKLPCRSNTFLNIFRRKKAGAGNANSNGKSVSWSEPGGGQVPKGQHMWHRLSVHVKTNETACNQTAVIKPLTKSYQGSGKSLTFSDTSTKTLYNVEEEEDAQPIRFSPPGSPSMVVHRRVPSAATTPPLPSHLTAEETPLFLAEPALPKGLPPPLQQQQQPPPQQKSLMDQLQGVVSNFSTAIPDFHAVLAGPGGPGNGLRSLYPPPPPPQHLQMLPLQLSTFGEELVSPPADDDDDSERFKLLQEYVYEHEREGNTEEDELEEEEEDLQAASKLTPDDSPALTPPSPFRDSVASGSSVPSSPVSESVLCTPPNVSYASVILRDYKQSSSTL
# UniProt Q7Z602, sequence (whole entry, looked up): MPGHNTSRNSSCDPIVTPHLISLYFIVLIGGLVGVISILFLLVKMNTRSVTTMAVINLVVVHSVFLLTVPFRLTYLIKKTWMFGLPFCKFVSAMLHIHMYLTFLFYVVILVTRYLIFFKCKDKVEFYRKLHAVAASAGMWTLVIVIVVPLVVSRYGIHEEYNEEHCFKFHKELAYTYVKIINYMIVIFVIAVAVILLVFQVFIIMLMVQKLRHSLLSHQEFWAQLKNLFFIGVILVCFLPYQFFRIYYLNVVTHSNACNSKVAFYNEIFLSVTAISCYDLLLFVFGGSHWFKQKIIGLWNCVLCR
# UniProt P06276, sequence (whole entry, looked up): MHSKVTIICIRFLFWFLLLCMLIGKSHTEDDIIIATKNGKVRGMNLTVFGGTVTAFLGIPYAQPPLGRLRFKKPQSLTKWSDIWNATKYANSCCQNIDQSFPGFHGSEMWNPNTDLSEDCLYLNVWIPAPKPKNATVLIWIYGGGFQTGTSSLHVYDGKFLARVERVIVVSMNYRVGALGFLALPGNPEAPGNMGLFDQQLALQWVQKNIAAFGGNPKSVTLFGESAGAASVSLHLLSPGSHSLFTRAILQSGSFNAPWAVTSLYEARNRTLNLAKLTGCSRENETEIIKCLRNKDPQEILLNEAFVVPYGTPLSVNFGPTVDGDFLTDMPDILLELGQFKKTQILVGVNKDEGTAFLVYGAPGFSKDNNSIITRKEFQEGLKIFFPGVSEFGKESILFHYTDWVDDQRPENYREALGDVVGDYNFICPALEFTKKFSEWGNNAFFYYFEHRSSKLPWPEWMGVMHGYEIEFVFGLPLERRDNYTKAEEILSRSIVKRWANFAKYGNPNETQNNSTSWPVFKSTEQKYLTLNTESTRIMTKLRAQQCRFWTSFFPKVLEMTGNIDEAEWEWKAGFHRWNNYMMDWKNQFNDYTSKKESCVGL
# UniProt Q9UIA9, sequence (whole entry, looked up): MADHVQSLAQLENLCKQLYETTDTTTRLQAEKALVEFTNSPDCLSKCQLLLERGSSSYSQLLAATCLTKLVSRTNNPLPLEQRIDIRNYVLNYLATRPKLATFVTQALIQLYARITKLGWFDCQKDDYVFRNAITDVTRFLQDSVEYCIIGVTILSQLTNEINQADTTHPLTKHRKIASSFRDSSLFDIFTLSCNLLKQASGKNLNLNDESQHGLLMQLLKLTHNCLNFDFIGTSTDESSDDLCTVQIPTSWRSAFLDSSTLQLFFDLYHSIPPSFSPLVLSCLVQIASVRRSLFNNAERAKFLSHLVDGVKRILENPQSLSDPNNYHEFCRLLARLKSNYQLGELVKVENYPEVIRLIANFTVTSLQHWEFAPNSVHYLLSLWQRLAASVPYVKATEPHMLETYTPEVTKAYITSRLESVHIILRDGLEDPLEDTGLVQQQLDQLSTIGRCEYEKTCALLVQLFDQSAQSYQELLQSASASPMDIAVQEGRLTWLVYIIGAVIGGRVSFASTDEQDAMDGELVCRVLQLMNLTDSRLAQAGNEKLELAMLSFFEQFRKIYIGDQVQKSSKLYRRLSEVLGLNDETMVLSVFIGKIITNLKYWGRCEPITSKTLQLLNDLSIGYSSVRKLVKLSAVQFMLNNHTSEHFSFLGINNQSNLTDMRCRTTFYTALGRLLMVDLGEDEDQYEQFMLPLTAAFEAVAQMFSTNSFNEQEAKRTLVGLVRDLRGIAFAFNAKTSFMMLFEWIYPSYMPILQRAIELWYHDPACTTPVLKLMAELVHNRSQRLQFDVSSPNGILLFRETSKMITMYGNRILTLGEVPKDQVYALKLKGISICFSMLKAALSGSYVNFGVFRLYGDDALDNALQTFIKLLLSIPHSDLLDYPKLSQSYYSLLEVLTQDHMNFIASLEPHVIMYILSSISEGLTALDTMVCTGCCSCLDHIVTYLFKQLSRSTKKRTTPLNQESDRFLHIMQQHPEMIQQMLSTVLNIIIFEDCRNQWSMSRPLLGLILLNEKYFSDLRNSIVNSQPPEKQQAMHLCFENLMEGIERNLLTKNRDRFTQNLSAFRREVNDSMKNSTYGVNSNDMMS
# UniProt Q9JMD7, sequence (whole entry, looked up): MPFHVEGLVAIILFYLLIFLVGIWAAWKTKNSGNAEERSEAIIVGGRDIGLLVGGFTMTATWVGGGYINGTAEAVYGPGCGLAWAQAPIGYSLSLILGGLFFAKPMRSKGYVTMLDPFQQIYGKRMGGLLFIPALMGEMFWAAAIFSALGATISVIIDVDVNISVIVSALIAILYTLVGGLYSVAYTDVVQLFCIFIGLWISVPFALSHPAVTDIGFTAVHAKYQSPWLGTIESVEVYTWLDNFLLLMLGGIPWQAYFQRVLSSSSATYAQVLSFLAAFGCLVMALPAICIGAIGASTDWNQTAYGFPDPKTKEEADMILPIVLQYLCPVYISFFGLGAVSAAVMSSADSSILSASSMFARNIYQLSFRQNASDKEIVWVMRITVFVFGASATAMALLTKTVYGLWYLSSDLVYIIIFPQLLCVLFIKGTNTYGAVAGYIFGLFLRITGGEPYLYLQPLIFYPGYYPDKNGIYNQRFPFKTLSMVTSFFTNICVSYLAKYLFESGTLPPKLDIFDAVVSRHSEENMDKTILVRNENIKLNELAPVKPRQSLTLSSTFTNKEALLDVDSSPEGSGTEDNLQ
SMILES,target or system,assay,test system,conditions,how to read,endpoint,result
O=C(c1ccc(Cl)cc1)N1CCN2C(=O)N(OC(=O)N3CCOc4ccccc43)C(=O)C2C1 (stereo not shown),"Cholinesterase (BCHE, Homo sapiens, UniProt P06276)",MS-based ABPP,SW-620 conditioned medium,"10 µM, 1 h, 37 °C",baseline: treated over control,mean protein ratio,1.21
C[C@H]1CN(c2n[nH]c3nc(N[C@H]4CC[C@H](NS(=O)(=O)CCC(F)(F)F)CC4)ncc23)CCO1,"Exportin-7 (Homo sapiens, UniProt Q9UIA9)","Kinobeads competition, item: XPO7",,"0.8 µM, unit not given",baseline: vehicle,remaining binding,1.13
CO[C@H]1C[C@@H]2CC[C@@H](C)[C@@](O)(O2)C(=O)C(=O)N2CCCC[C@H]2C(=O)O[C@H]([C@H](C)C[C@@H]2CC[C@@H](OC(=O)NCCOCCOCCOCCOCCOCCOCCOCCOCCC(=O)N3CCc4cc(Cn5nc(-c6ccc7oc(N)nc7c6)c6c(N)ncnc65)ccc4C3)[C@H](OC)C2)C[C@@H](O)[C@H](C)/C=C(\C)[C@@H](O)[C@@H](OC)C(=O)[C@H](C)C[C@H](C)/C=C/C=C/C=C/1C,,"phase 1 dose escalation, item: mucositis",advanced solid tumour patients,"intravenous, 8 mg weekly, grade ≥3",,dose-reducing adverse events,0%
CN1CCN(c2cc(-c3ccncc3)c(-c3ccc4ccccc4c3)nn2)CC1,"GRM1 (Homo sapiens, UniProt Q13255)","antagonist, FLIPR",,10 µM,,inhibition,5.2%
CN(C(=O)n1cnc(-c2ccc[n+]([O-])c2)c1)C1CCCCC1,BDKRB1,radioligand binding,,"50 µM, with: [3H]des-Arg10-kallidin",,inhibition,16%
COc1cc(Nc2ncc(F)c(Nc3ccc4c(n3)NC(=O)C(C)(C)O4)n2)cc(OC)c1OC,"BDKRB2 (Homo sapiens, UniProt P30411)",,,,,IC50,> 10 µM
O=C(Nc1cnccc1Cl)N1CCN(Cc2ccc3c(c2)OC(F)(F)O3)CC1,"High affinity choline transporter 1 (Rattus norvegicus, UniProt Q9JMD7)",radioligand binding,,"10 µM, rat transporter, with: [3H]hemicholinium-3",,inhibition of binding,-2%
COc1ccc(N2C(=O)N(c3c(C)cccc3Cl)Cc3cnc(Nc4ccc(C5CCN(C)CC5)cc4OC)nc32)nc1,"AKT1 (Homo sapiens, UniProt P31749)",kinase activity,,0.5 µM,,inhibition,2.82%
O=C(Nc1cccnn1)N1CCC(=Cc2cccc(Oc3ccc(C(F)(F)F)cn3)c2)CC1,BDKRB1,binding,,"10 µM, with: [3H][des-Arg10]kallidin",,inhibition,13%
COc1cc2c(Oc3ccc4[nH]c(C)cc4c3F)ccnc2cc1OCC1(N)CC1,,,paediatric recurrent refractory sarcoma,8 mg/kg,,grade 3 Diarrhoea,0%
COc1cc(N)c(Cl)cc1C(=O)NC1CN2CCC1CC2 (stereo not shown),"Probable G-protein coupled receptor 141 (GPR141, Homo sapiens, UniProt Q7Z602)","β-arrestin recruitment, TANGO luminescence, item: GPR141",,concentration not given,baseline: basal luminescence,log2 fold change,0.075
[2H]c1c([2H])c([C@]2([2H])CCCN2C(=O)C(C)(C)Oc2ccc3cn[nH]c3c2)c([2H])c([2H])c1C([2H])([2H])[2H],"PIM3 (Homo sapiens, UniProt Q86V86)",KINOMEscan,,1 µM,baseline: DMSO control,remaining binding,92%
CC[C@H](C)[C@H](NC(=O)[C@H](Cc1ccccc1)NC(=O)[C@H](CCC(=O)O)NC(=O)[C@H](CCCNC(=N)N)NC(=O)[C@H](C)NC(=O)[C@H](C)NC(=O)[C@H](CCC(N)=O)NC(=O)[C@H](CCC(=O)O)NC(=O)[C@H](CCC(=O)O)NC(=O)[C@H](CC(C)C)NC(=O)[C@H](Cc1ccc(O)cc1)NC(=O)[C@H](CO)NC(=O)[C@H](CO)NC(=O)[C@@H](NC(=O)[C@H](CC(=O)O)NC(=O)[C@H](CO)NC(=O)[C@@H](NC(=O)[C@H](Cc1ccccc1)NC(=O)[C@@H](NC(=O)CNC(=O)[C@H](CCC(=O)O)NC(=O)[C@H](C)NC(=O)CCc1c[nH]cn1)[C@@H](C)O)[C@@H](C)O)C(C)C)C(=O)N[C@@H](C)C(=O)N[C@@H](Cc1c[nH]c2ccccc12)C(=O)N[C@@H](CC(C)C)C(=O)N[C@H](C(=O)N[C@@H](CCCNC(=N)N)C(=O)NCC(=O)N[C@@H](CCCNC(=N)N)C(=O)N[C@@H](CCCCNC(=O)COCCOCCNC(=O)COCCOCCNC(=O)CC[C@H](NC(=O)CCCCCCCCCCCCCCCCC(=O)O)C(=O)O)C(=O)NCC(=O)NCC(=O)N[C@@H](CO)C(=O)N[C@@H](CCCCNc1c(NCCCCCN(O)C(=O)CCC(=O)NCCCCCN(O)C(=O)CCC(=O)NCCCCCN(O)C(C)=O)c(=O)c1=O)C(=O)O)C(C)C [zirconium-89 labelled],,,"rat, intestine content","intravenous, 3 nmol/kg, 72 h",,tissue uptake,0.06 %ID/g

# Excerpt of the above:
SMILES,target or system,assay,test system,conditions,how to read,endpoint,result
COc1ccc(N2C(=O)N(c3c(C)cccc3Cl)Cc3cnc(Nc4ccc(C5CCN(C)CC5)cc4OC)nc32)nc1,"AKT1 (Homo sapiens, UniProt P31749)",kinase activity,,0.5 µM,,inhibition,2.82%
O=C(Nc1cccnn1)N1CCC(=Cc2cccc(Oc3ccc(C(F)(F)F)cn3)c2)CC1,BDKRB1,binding,,"10 µM, with: [3H][des-Arg10]kallidin",,inhibition,13%
